Experimental data pooled from the literature.
Several values in a cell are separate wells, animals, samples, runs or records. ± marks the error that the study gave.

CSCC[C@H](NC(=O)[C@H](CCCCN)NC(=O)[C@H](CCCNC(=N)N)NC(=O)[C@H](CO)NC(=O)[C@H](Cc1c[nH]c2ccccc12)NC(=O)[C@H](CCCNC(=N)N)NC(=O)[C@H](CC(C)C)NC(=O)[C@@H](CO)NC(C)=O)C(=O)N1CCC[C@H]1C(=O)N[C@@H](CS)C(=O)N[C@H](C(=O)N[C@@H](CO)C(N)=O)C(C)C — remaining activity (12G5 competition, SUP-T1 cells; human plasma; 20 µM, 8 h, 37 °C): 52 ± 2%
CSCC[C@H](NC(=O)[C@H](CCCNC(=N)N)NC(=O)[C@H](CCCNC(=N)N)NC(=O)[C@H](CCCCN)NC(=O)[C@H](C)NC(=O)[C@H](CCCNC(=N)N)NC(=O)CNC(=O)[C@@H](NC(=O)CCNC(=O)c1ccc2c(c1)C(=O)OC21c2ccc(O)cc2Oc2cc(O)ccc21)[C@@H](C)O)C(=O)N[C@@H](CSCB(O)O)C(=O)N[C@@H](Cc1ccc(O)cc1)C(=O)N[C@@H](CSCB(O)O)C(=O)N[C@@H](CCCNC(=N)N)C(=O)N[C@@H](CCCNC(=N)N)C(N)=O — remaining peptide (HPLC peak area; 50% human serum; 100 µM, 1 h, pH 7.4, 37 °C; relative to: 0 h): 84% and 81.4% and 84.5%
CC(C)[C@@H]1NC(=O)CNC(=O)[C@H](CC(N)=O)NC(=O)[C@H](CCCNC(=N)N)NC(=O)[C@H](Cc2ccc(O)cc2)NC(=O)[C@H](C(C)C)NC(=O)[C@@H](NC(=O)[C@@H](NC(=O)[C@H](CC(N)=O)NC(=O)[C@H](Cc2c[nH]c3ccccc23)NC(=O)[C@H](C)NC(=O)[C@H](Cc2ccccc2)NC(=O)CN)C(C)C)CSSC[C@@H](C(=O)N[C@@H](Cc2cnc[nH]2)C(=O)N[C@@H](CCCNC(=N)N)C(=O)N[C@@H](CCCNC(=N)N)C(=O)N[C@@H](C)C(=O)N[C@@H](CC(N)=O)C(N)=O)NC(=O)[C@H](C(C)C)NC(=O)[C@H](CCCNC(=N)N)NC1=O — remaining peptide (HPLC; trypsin; 2560 µM, 4.00 h, together with: trypsin 1 % w/v): 2.4% and 1.08% and 5.46%
CC(C)C[C@@H]1NC(=O)CNC(=O)[C@H](CC(N)=O)NC(=O)[C@H](CCCNC(=N)N)NC(=O)[C@H]([C@@H](C)O)NC(=O)[C@@H]2CSSC[C@@H]3NC(=O)[C@H]([C@@H](C)O)NC(=O)CNC(=O)CNC(=O)[C@H](C(C)C)NC(=O)[C@@H]4CSSC[C@H](NC(=O)[C@H]([C@@H](C)O)NC(=O)[C@H](CSSC[C@H](NC(=O)[C@H](C(C)C)NC(=O)[C@@H]5CCCN5C1=O)C(=O)NCC(=O)N[C@@H](CCC(=O)O)C(=O)N[C@@H]([C@@H](C)O)C(=O)N4)NC(=O)CNC(=O)[C@@H]1CCCN1C(=O)[C@H]([C@@H](C)O)NC(=O)[C@H](CC(N)=O)NC3=O)C(=O)N[C@@H](CCCCN)C(=O)N[C@@H](Cc1c[nH]c3ccccc13)C(=O)N1CCC[C@H]1C(=O)N[C@@H](C(C)C)C(=O)N2 — remaining peptide (HPLC; water; 180 µM, 14 days, 37 °C, deamidation stability): 98 ± 0.6%
CC[C@@H](C)[C@@H](NC(=O)[C@@H](Cc1ccc(O)cc1)NC(=O)[C@H]1CCCN1C(=O)[C@@H](CCCNC(=N)N)NC(=O)[C@H](N)Cc1c[nH]cn1)C(=O)N[C@H](C)C(=O)N[C@H](Cc1c[nH]cn1)C(=O)N[C@H](CCCNC(=N)N)C(=O)N[C@@H](C(=O)N[C@H](Cc1ccc(O)cc1)C(=O)N[C@H](CO)C(=O)N[C@H](Cc1ccccc1)C(N)=O)C(C)C — remaining compound (10% human serum; 4 h): 107% and 106% and 104%
CC(C)C[C@@H]1NC(=O)CNC(=O)[C@H](CC(N)=O)NC(=O)[C@H](CCCNC(=N)N)NC(=O)[C@H]([C@@H](C)O)NC(=O)[C@@H]2CSSC[C@@H]3NC(=O)[C@H]([C@@H](C)O)NC(=O)CNC(=O)CNC(=O)[C@H](C(C)C)NC(=O)[C@@H]4CSSC[C@H](NC(=O)[C@H]([C@@H](C)O)NC(=O)[C@H](CSSC[C@H](NC(=O)[C@H](C(C)C)NC(=O)[C@@H]5CCCN5C1=O)C(=O)NCC(=O)N[C@@H](CCC(=O)O)C(=O)N[C@@H]([C@@H](C)O)C(=O)N4)NC(=O)CNC(=O)[C@@H]1CCCN1C(=O)[C@H]([C@@H](C)O)NC(=O)[C@H](CCCCN)NC3=O)C(=O)N[C@@H](CO)C(=O)N[C@@H](Cc1c[nH]c3ccccc13)C(=O)N1CCC[C@H]1C(=O)N[C@@H](C(C)C)C(=O)N2 — remaining peptide (HPLC; ammonium bicarbonate 0.1 M; 180 µM, 14 days, pH 9.0, 37 °C, deamidation stability): 57.3 ± 6.3%
CC[C@H](C)[C@H](NC(=O)[C@H](CCCCN)NC(=O)[C@H](CCCCN)NC(=O)CNC(=O)[C@H](CCCCN)NC(=O)[C@H](CC(C)C)NC(=O)[C@H](CCCCN)NC(=O)[C@H](CCCNC(=N)N)NC(=O)[C@@H](NC(=O)[C@H](CC(C)C)NC(=O)[C@H](CCCNC(=N)N)NC(=O)[C@@H](N)CCCNC(=N)N)[C@@H](C)CC)C(=O)N[C@@H](Cc1ccc(O)cc1)C(=O)N[C@@H](CC(C)C)C(=O)N[C@@H](Cc1ccc(O)cc1)C(=O)N[C@@H](Cc1ccccc1)C(=O)N[C@@H](CCCCN)C(=O)N[C@@H](CC(C)C)C(=O)N[C@@H](CCC(N)=O)C(=O)N[C@@H](CC(C)C)C(=O)N[C@@H](CC(C)C)C(=O)N[C@@H](CCCCN)C(=O)N[C@@H](CCCCN)C(N)=O — remaining intact peptide (LC-MS; 25% human serum; 200 µM, 60 h, 37 °C): 74 ± 3%
CC[C@@H](C)[C@@H](NC(C)=O)C(=O)N[C@@H](CC(C)C)C(=O)N[C@@H](CCCNC(=N)N)C(=O)N[C@@H](Cc1c[nH]c2ccccc12)C(=O)N[C@@H](CO)C(=O)N[C@@H](CCCNC(=N)N)C(=O)N[C@@H](CCCCN)C(=O)N[C@@H](CC(C)C)C(=O)N1CCC[C@H]1C(=O)N[C@@H](CS)C(=O)N[C@H](C(=O)N[C@@H](CO)C(N)=O)C(C)C — remaining activity (12G5 competition, SUP-T1 cells; human plasma; concentration not given, 8 h): 71 ± 17%
CC(C)C[C@@H]1NC(=O)CNC(=O)[C@H](CC(N)=O)NC(=O)[C@H](CCCNC(=N)N)NC(=O)[C@H](CCCCN)NC(=O)[C@@H]2CSSC[C@@H]3NC(=O)[C@H]([C@@H](C)O)NC(=O)CNC(=O)CNC(=O)[C@H](C(C)C)NC(=O)[C@@H]4CSSC[C@H](NC(=O)[C@H]([C@@H](C)O)NC(=O)[C@H](CSSC[C@H](NC(=O)[C@H](C(C)C)NC(=O)[C@@H]5CCCN5C1=O)C(=O)NCC(=O)N[C@@H](CCC(=O)O)C(=O)N[C@@H]([C@@H](C)O)C(=O)N4)NC(=O)CNC(=O)[C@@H]1CCCN1C(=O)[C@H]([C@@H](C)O)NC(=O)[C@H](CC(N)=O)NC3=O)C(=O)N[C@@H](CO)C(=O)N[C@@H](Cc1c[nH]c3ccccc13)C(=O)N1CCC[C@H]1C(=O)N[C@@H](C(C)C)C(=O)N2 — remaining peptide (HPLC; water; 180 µM, 14 days, 37 °C, deamidation stability): 98.6 ± 0.5%
O=C/C=C/c1ccccc1 — remaining concentration (FeSSGF; 2 h, pH 4.52, 37 °C): 300 ± 30 µg/mL
C/C(=C\CCP(=O)(OCOC(=O)CC1CCOCC1)Oc1ccc(C(C)C)cc1)CO (stereo not drawn) — remaining compound (50% Sprague-Dawley rat plasma; 100 µM, 2 h, pH 7.5, 37 °C): 0%
CC(C)C[C@@H]1NC(=O)CNC(=O)[C@H](CC(N)=O)NC(=O)[C@H](CCCNC(=N)N)NC(=O)[C@H]([C@@H](C)O)NC(=O)[C@@H]2CSSC[C@@H]3NC(=O)[C@H]([C@@H](C)O)NC(=O)CNC(=O)CNC(=O)[C@H](C(C)C)NC(=O)[C@@H]4CSSC[C@H](NC(=O)[C@H]([C@@H](C)O)NC(=O)[C@H](CSSC[C@H](NC(=O)[C@H](C(C)C)NC(=O)[C@@H]5CCCN5C1=O)C(=O)NCC(=O)N[C@@H](CCC(=O)O)C(=O)N[C@@H]([C@@H](C)O)C(=O)N4)NC(=O)CNC(=O)[C@@H]1CCCN1C(=O)[C@H]([C@@H](C)O)NC(=O)[C@H](CC(N)=O)NC3=O)C(=O)N[C@@H](CO)C(=O)N[C@@H](CCCCN)C(=O)N1CCC[C@H]1C(=O)N[C@@H](C(C)C)C(=O)N2 — remaining peptide (HPLC; ammonium bicarbonate; 180 µM, 14 days, pH 9.0, 25 °C, deamidation stability): 87.7 ± 2.7%
CC[C@@H](C)[C@@H](NC(=O)[C@@H](Cc1ccc(O)cc1)NC(=O)[C@H]1CCCN1C(=O)[C@@H](CCCNC(=N)N)NC(=O)[C@H](N)Cc1c[nH]cn1)C(=O)N[C@H](C)C(=O)N[C@H](Cc1c[nH]cn1)C(=O)N[C@H](CCCNC(=N)N)C(=O)N[C@H](CCCCNC(=O)c1cccc(S(=O)(=O)F)c1)C(=O)N[C@H](Cc1ccc(O)cc1)C(=O)N[C@H](CO)C(=O)N[C@H](Cc1ccccc1)C(N)=O — remaining compound (10% human serum; 1 h): 108% and 109%
CCCCCCCCCCCCCCOC(=O)ONc1ccn([C@@H]2O[C@H](CO)[C@@H](O)[C@H]2O)c(=O)n1 — remaining parent compound (pooled human plasma; 2 µM, 30 min, 37 °C): 17%
CSCC[C@H](NC(=O)[C@H](N)Cc1ccccc1)C(=O)N[C@@H](CCCNC(=N)N)C(=O)N[C@@H](Cc1c[nH]c2ccccc12)C(=O)N[C@@H](CO)C(=O)N[C@@H](CCCNC(=N)N)C(=O)N[C@@H](CCCCN)C(=O)N[C@@H](CCSC)C(=O)N1CCC[C@H]1C(=O)N[C@@H](CS)C(=O)N[C@H](C(=O)N[C@@H](CO)C(N)=O)C(C)C — remaining activity (12G5 competition, SUP-T1 cells; human plasma; 20 µM, 2 h, 37 °C): 70 ± 5%

Repeated from above:
CC(C)C[C@@H]1NC(=O)CNC(=O)[C@H](CC(N)=O)NC(=O)[C@H](CCCNC(=N)N)NC(=O)[C@H](CCCCN)NC(=O)[C@@H]2CSSC[C@@H]3NC(=O)[C@H]([C@@H](C)O)NC(=O)CNC(=O)CNC(=O)[C@H](C(C)C)NC(=O)[C@@H]4CSSC[C@H](NC(=O)[C@H]([C@@H](C)O)NC(=O)[C@H](CSSC[C@H](NC(=O)[C@H](C(C)C)NC(=O)[C@@H]5CCCN5C1=O)C(=O)NCC(=O)N[C@@H](CCC(=O)O)C(=O)N[C@@H]([C@@H](C)O)C(=O)N4)NC(=O)CNC(=O)[C@@H]1CCCN1C(=O)[C@H]([C@@H](C)O)NC(=O)[C@H](CC(N)=O)NC3=O)C(=O)N[C@@H](CO)C(=O)N[C@@H](Cc1c[nH]c3ccccc13)C(=O)N1CCC[C@H]1C(=O)N[C@@H](C(C)C)C(=O)N2 — remaining peptide (HPLC; water; 180 µM, 14 days, 37 °C, deamidation stability): 98.6 ± 0.5%
CC[C@@H](C)[C@@H](NC(C)=O)C(=O)N[C@@H](CC(C)C)C(=O)N[C@@H](CCCNC(=N)N)C(=O)N[C@@H](Cc1c[nH]c2ccccc12)C(=O)N[C@@H](CO)C(=O)N[C@@H](CCCNC(=N)N)C(=O)N[C@@H](CCCCN)C(=O)N[C@@H](CC(C)C)C(=O)N1CCC[C@H]1C(=O)N[C@@H](CS)C(=O)N[C@H](C(=O)N[C@@H](CO)C(N)=O)C(C)C — remaining activity (12G5 competition, SUP-T1 cells; human plasma; concentration not given, 8 h): 71 ± 17%
